Published values collected from several papers.
Each numbered part is a random draw from the data of one study; scales do not carry over between parts.
Sequence of UniProt P07333 (whole entry, looked up): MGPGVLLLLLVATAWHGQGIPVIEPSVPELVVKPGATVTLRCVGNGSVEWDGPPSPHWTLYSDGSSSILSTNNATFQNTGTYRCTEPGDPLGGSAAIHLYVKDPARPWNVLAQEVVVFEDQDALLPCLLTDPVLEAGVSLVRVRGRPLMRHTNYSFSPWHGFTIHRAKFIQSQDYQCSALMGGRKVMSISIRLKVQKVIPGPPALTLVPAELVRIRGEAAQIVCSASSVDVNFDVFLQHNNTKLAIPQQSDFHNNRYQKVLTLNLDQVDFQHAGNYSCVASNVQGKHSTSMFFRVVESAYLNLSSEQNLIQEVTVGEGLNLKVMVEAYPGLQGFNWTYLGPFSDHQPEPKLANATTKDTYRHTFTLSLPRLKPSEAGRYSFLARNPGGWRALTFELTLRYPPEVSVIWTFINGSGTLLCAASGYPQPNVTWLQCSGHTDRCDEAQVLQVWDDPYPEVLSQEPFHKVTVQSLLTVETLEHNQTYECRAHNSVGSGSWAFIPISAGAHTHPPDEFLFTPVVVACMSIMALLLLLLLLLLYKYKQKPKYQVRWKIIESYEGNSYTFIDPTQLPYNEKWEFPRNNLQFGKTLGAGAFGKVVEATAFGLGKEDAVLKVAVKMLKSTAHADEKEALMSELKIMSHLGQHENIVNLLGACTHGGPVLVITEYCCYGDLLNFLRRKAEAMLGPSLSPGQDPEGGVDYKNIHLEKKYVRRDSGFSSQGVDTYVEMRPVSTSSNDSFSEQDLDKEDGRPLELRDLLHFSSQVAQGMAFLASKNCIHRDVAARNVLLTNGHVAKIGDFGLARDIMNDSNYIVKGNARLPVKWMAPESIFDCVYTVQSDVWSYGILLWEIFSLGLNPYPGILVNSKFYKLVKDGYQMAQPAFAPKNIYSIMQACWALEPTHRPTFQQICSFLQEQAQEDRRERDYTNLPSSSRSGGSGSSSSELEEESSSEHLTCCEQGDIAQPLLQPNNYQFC

Set 1
Target: PABPC1L2, full length, GST fusion (mouse, UniProt A0ABA7IW68)
Method: RNAcompete
Molecule type: RNA
Sample: in vitro
Tested at: 20 nM
Setting: 7-mer, probes averaged, single round
Relative to: mean of 7-mers
Reading: higher = stronger binding
Construct (chain): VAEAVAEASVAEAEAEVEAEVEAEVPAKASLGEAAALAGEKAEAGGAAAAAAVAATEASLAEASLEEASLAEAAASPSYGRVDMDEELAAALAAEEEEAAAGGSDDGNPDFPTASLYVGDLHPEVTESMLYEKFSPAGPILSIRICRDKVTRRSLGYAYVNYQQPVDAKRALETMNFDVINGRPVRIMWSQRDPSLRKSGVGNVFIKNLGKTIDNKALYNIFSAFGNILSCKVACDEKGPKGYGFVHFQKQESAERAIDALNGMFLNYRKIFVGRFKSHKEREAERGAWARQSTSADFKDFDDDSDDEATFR
The 7-mer Z-score of `GUCCUGA` is reported as -0.338.
`AGAAUAU` has a 7-mer Z-score of -0.108.
`UUAUAUG` gave a 7-mer Z-score of -0.0736.
With `UGGUGCU` the 7-mer Z-score was -0.266.
`GGUGACG` has a 7-mer Z-score of -0.0337.
With `GUUUAAA` the 7-mer Z-score was 0.32.
`AUAAUAG` has a 7-mer Z-score of -0.0047.
For `UCAUGAC`, the 7-mer Z-score was -0.113.

Set 2
Target: RNA binding protein fox-1 homolog 2, RRM domain, GST-SBP tag (RBFOX2, Homo sapiens, UniProt O43251-10, residues 100-194)
Method: RNA Bind-n-Seq
Molecule type: RNA
Sample: in vitro
Tested at: 365 nM
Setting: natural RNA segment, single round, ends assumed
Relative to: no-protein control
Reading: higher = stronger binding
Constant ends, left off below: GGGAGUUCUACAGUCCGACGAUC … UGGAAUUCUCGGGUGCCAA
Target sequence (chain): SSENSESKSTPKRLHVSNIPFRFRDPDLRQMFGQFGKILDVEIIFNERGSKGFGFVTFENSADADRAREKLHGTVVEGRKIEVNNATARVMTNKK
For `AAUGCAUUCUUCUGUUGAGGAGUAACAGGUCUCAAUUCUUUUCAAUUAAUUUUAAAAGUCAAUCACUAAGAGCAUCGGCUUUGGGCCCUGAUGGGCAGGCAUUUCCCUGG`, “RBNS enrichment (R)” read 0.622.
For `AUCUCAGUAGACUAAACUCCAGCCCAUUUUUUAAAUGUGAGCAUGUGCUUUGCCAUCCAGUGUGGGUUUUGUUUUGGUUUAGGUUUUGUUUUUUGUUUUUCAAGAUAGGG`, “RBNS enrichment (R)” read 6.74.
Under “RBNS enrichment (R)”, `AGACGGAGAAAAGGACUAGUGGCUGCCAACGCGCACGCUCGGGUCCGAGGCUGCUCCCCUGGAGCGGCGCCCCUGCGCCCUCAGCCCGAGCAGCGACAUCCACUCGCCAU` is recorded as 0.232.
For `UGGCCCCACCUCCCUCAAGUCUGCGCCCCGUCCCCAGCCAGACCCACUCGCUGCCGGGACCCUUUCACUGCCCCGGUGGAGUGAAUAGAGGAUGAGGGGCCCUGACCCUG`, “RBNS enrichment (R)” read 0.318.
For `CUUAGUCUCAAGGGCUAGCAUCCCUGAGGAGCCAGGCCGGGCCGAAUCCCCUCCCUGUCAAAGCUGUCACUUCGCGUGCCCUCGCUGCUUCUGUGUGUGGUGAGCAGAAG`, “RBNS enrichment (R)” read 0.569.
For `UAGUUUAAAGCCUGCAGUAAAGGUACUCAGAUUUAUGGCUUUCAUGACUAACACUAAACACAUCAGCCAACAAUGUACCAAGAAAACAUGAUUUUAUGAAACAGAAUGUC`, “RBNS enrichment (R)” read 0.485.
For `AGGACAGCCCCACCCUGGAAUGCCAAUGUCAGCCUCAAGCCCCUCGGUUCUUAACACAGGAGACCCGACAAUGAGUGCACAAGUCAUGGACAUUCACGCUCAGUAGCUUA`, “RBNS enrichment (R)” read 0.52.
For `CACCCUUGUCCCUCAGCAACAUCCCAUCUAAGCAUUCCACACUGCAGGGAGGAGUGGUACUUAAGCUCCCCUGCCUUAACCUGGGACCAACCUGACCUAACCUAGGAGGG`, “RBNS enrichment (R)” read 0.597.

Set 3
Target: Sox-I, HMG box (Salpingoeca helianthica)
Method: Spec-seq
Molecule type: double-stranded DNA, one strand shown
Sample: in vitro
Tested at: not given
Setting: whole probe, mean of replicates
Relative to: not given
Reading: lower = stronger binding
Constant ends, left off below: GAGTCGTCTCGTCAGCAC … CCGTAGAGCACTCAGGTC
Target sequence (chain): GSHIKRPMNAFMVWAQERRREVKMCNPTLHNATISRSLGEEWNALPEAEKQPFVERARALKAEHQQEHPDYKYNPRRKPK
For `TTGCGTT`, “relative binding energy” read 1.1 ln ratio.
`GACAGTT` — result for “relative binding energy”: 0.449 ln ratio.
`CATTACC`: “relative binding energy” 0.468 ln ratio.
`CATCGTG`: “relative binding energy” 0.943 ln ratio.
Under “relative binding energy”, `CATTATG` is recorded as -1.14 ln ratio.
Under “relative binding energy”, `TCTAGTT` is recorded as 0.056 ln ratio.
Under “relative binding energy”, `TGAGGTT` is recorded as 0.576 ln ratio.
Under “relative binding energy”, `TCTGGTT` is recorded as 0.678 ln ratio.

Other studies, line by line
O=C(c1ccccc1)c1ccc(N2CCOCC2)cc1O has a remaining activity of 99.7% (Macrophage colony-stimulating factor 1 receptor (CSF1R, Homo sapiens, UniProt P07333); enzyme activity, inhibitor; 0.5 µM; relative to: control).

For quick reference, copied from above (set 1):
`GGUGACG` has a 7-mer Z-score of -0.0337.
With `GUUUAAA` the 7-mer Z-score was 0.32.
`AUAAUAG` has a 7-mer Z-score of -0.0047.
